{"data": "Measurements of several laboratories", "note": "Every numbered part comes from another study and shows a few of its results, in no order. Several values in a cell are separate wells, animals, samples, runs or records.", "UniProt Q9C098, sequence (whole entry, looked up)": "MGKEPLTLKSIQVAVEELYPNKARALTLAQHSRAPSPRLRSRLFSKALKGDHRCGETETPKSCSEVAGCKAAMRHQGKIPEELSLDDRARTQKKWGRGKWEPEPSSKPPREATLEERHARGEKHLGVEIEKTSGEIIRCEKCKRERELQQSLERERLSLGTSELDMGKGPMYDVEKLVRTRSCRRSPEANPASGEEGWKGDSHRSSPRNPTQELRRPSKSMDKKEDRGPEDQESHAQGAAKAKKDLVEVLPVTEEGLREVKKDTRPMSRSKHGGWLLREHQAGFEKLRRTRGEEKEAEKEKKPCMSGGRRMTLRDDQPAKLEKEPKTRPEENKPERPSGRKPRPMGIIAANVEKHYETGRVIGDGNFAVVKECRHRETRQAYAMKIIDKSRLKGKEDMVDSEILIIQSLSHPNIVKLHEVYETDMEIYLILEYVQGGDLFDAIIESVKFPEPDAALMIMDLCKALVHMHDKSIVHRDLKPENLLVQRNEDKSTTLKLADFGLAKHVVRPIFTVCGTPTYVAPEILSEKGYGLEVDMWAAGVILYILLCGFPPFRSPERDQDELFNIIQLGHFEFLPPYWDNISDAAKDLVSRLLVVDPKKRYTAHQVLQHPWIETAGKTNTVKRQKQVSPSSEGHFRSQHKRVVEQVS", "UniProt Q13546, sequence (whole entry, looked up)": "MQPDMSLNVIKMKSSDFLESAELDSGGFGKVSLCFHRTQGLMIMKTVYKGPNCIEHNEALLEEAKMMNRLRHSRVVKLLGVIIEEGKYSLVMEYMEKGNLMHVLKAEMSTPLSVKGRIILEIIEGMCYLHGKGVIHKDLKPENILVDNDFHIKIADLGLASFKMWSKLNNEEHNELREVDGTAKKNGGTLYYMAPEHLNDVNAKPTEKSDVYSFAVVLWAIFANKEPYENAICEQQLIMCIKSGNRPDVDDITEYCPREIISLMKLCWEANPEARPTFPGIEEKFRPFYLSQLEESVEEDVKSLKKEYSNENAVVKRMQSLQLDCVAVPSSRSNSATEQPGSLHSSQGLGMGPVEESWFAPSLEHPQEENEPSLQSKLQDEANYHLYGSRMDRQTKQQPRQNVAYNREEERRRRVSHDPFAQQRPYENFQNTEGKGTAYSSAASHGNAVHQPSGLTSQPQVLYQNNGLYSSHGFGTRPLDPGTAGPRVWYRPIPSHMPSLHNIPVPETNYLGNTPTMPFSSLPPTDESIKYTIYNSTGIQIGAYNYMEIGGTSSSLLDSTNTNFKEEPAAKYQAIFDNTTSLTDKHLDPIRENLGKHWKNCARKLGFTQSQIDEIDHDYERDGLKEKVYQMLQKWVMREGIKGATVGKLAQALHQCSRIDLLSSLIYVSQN"}
{"data": "Series 1", "target": "Eukaryotic initiation factor 4A-I (EIF4A1, Homo sapiens, UniProt P60842)", "observed": "RNA clamping", "technique": "fluorescence polarization", "concentration": "concentration not given", "notes": "mean of two replicates", "added": "FAM-labelled poly r(AG)8 RNA", "UniProt P60842, sequence (whole entry, looked up)": "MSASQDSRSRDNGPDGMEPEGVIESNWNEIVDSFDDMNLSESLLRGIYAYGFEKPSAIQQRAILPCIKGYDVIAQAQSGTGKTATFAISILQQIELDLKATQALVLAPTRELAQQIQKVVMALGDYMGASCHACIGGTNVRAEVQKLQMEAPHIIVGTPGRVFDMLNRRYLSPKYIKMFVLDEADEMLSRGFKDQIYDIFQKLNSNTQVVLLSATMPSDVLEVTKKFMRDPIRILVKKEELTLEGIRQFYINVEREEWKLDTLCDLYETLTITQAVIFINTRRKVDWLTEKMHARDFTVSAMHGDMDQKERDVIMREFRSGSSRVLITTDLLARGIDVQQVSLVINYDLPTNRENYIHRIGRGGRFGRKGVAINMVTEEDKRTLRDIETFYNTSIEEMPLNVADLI"}
{"SMILES": "COC(=O)[C@@H]1[C@@H](c2ccccc2)[C@]2(c3ccc(OC)cc3)Oc3cc(OC)cc(OC)c3[C@@]23OC(c2cccnc2)=N[C@@]13O", "fluorescence polarization change": "5.3 mP"}
{"SMILES": "COC(=O)C1=C(OS(=O)(=O)c2ccc(C)cc2)[C@@]2(O)c3c(OC)cc(OC)cc3O[C@@]2(c2ccc(OC)cc2)[C@@H]1c1ccccc1", "fluorescence polarization change": "8.9 mP"}
{"SMILES": "COC(=O)[C@@H]1[C@@H](c2ccccc2)[C@]2(c3ccc(OC)cc3)Oc3cc(OC)cc(OC)c3[C@@]23N2CCCCC2=N[C@@]13O", "fluorescence polarization change": "82.9 mP"}
{"SMILES": "COc1ccc([C@@]23Oc4cc(OC)cc(OC)c4[C@]2(O)c2nc(-c4cccc(OC)c4)[nH]c(=O)c2[C@H]3c2ccccc2)cc1", "fluorescence polarization change": "18.5 mP and 40.7 mP"}
{"SMILES": "COc1ccc([C@]23Oc4cc(OC)cc(OC)c4[C@](O)([C@H](C(=O)NCCCC(OC)OC)[C@H]2c2ccccc2)[C@@H]3O)cc1", "fluorescence polarization change": "0.9 mP"}
{"SMILES": "COc1ccc([C@@]23Oc4cc(OC)cc(OC)c4[C@]2(O)[C@H](O)[C@H](C(=O)c2nccn2C)[C@H]3c2ccccc2)cc1", "fluorescence polarization change": "31.6 mP"}
{"SMILES": "COc1ccc([C@@]23Oc4cc(OC)cc(OC)c4[C@]2(O)[C@H](O)[C@H](C(=O)c2ccco2)[C@H]3c2ccccc2OC)cc1", "fluorescence polarization change": "33 mP"}
{"SMILES": "COc1ccc([C@@]23Oc4cc(OC)cc(OC)c4[C@]2(O)[C@H](O)[C@H](C(=O)c2ccco2)[C@H]3c2ccccc2)cc1", "fluorescence polarization change": "29.4 mP and 38.7 mP"}
{"SMILES": "CCCN(CCC)[C@@]12C(=O)[C@H](C(=O)OC)[C@@H](c3ccccc3)[C@]1(c1ccc(OC)cc1)Oc1cc(OC)cc(OC)c12", "fluorescence polarization change": "4.2 mP"}
{"SMILES": "COC(=O)[C@@H]1[C@@H](O)[C@@]2(O)c3c(OC)cc(F)cc3O[C@@]2(c2ccc(Cl)cc2)[C@H]1c1ccccc1", "fluorescence polarization change": "21.5 mP"}
{"SMILES": "COc1ccc([C@@]23Oc4cc(OC)cc(OC)c4[C@]2(O)[C@H](O)[C@H](C(=O)c2cc4ccccc4n2C)[C@H]3c2ccccc2)cc1", "fluorescence polarization change": "9.5 mP"}
{"SMILES": "COc1ccc([C@@]23Oc4cc(OC)cc(OC)c4[C@]2(O)c2nc(-c4ccccc4)n(CC(CC(=O)O)OC)c(=O)c2[C@H]3c2ccccc2)cc1 (some centres unmarked)", "fluorescence polarization change": "8.8 mP"}
{"SMILES": "COc1ccc([C@@]23Oc4cc(OC)cc(OC)c4[C@]2(O)c2nc(-c4ccccn4)[nH]c(=O)c2[C@H]3c2ccccc2)cc1", "fluorescence polarization change": "8.4 mP"}
{"SMILES": "O[C@H]1C[C@@H](c2ccccc2)[C@]2(c3ccc(Cl)cc3)Oc3cc(OCCN4CCCC4)ccc3[C@]12O", "fluorescence polarization change": "82.5 mP"}
{"data": "Series 2", "target": "DNA polymerase theta, ATPase domain (POLQ, Homo sapiens, UniProt O75417)", "observed": "enzyme activity", "mode": "inhibitor", "concentration": "77 µM", "baseline": "untreated", "UniProt O75417, sequence (whole entry, unmodified, looked up)": "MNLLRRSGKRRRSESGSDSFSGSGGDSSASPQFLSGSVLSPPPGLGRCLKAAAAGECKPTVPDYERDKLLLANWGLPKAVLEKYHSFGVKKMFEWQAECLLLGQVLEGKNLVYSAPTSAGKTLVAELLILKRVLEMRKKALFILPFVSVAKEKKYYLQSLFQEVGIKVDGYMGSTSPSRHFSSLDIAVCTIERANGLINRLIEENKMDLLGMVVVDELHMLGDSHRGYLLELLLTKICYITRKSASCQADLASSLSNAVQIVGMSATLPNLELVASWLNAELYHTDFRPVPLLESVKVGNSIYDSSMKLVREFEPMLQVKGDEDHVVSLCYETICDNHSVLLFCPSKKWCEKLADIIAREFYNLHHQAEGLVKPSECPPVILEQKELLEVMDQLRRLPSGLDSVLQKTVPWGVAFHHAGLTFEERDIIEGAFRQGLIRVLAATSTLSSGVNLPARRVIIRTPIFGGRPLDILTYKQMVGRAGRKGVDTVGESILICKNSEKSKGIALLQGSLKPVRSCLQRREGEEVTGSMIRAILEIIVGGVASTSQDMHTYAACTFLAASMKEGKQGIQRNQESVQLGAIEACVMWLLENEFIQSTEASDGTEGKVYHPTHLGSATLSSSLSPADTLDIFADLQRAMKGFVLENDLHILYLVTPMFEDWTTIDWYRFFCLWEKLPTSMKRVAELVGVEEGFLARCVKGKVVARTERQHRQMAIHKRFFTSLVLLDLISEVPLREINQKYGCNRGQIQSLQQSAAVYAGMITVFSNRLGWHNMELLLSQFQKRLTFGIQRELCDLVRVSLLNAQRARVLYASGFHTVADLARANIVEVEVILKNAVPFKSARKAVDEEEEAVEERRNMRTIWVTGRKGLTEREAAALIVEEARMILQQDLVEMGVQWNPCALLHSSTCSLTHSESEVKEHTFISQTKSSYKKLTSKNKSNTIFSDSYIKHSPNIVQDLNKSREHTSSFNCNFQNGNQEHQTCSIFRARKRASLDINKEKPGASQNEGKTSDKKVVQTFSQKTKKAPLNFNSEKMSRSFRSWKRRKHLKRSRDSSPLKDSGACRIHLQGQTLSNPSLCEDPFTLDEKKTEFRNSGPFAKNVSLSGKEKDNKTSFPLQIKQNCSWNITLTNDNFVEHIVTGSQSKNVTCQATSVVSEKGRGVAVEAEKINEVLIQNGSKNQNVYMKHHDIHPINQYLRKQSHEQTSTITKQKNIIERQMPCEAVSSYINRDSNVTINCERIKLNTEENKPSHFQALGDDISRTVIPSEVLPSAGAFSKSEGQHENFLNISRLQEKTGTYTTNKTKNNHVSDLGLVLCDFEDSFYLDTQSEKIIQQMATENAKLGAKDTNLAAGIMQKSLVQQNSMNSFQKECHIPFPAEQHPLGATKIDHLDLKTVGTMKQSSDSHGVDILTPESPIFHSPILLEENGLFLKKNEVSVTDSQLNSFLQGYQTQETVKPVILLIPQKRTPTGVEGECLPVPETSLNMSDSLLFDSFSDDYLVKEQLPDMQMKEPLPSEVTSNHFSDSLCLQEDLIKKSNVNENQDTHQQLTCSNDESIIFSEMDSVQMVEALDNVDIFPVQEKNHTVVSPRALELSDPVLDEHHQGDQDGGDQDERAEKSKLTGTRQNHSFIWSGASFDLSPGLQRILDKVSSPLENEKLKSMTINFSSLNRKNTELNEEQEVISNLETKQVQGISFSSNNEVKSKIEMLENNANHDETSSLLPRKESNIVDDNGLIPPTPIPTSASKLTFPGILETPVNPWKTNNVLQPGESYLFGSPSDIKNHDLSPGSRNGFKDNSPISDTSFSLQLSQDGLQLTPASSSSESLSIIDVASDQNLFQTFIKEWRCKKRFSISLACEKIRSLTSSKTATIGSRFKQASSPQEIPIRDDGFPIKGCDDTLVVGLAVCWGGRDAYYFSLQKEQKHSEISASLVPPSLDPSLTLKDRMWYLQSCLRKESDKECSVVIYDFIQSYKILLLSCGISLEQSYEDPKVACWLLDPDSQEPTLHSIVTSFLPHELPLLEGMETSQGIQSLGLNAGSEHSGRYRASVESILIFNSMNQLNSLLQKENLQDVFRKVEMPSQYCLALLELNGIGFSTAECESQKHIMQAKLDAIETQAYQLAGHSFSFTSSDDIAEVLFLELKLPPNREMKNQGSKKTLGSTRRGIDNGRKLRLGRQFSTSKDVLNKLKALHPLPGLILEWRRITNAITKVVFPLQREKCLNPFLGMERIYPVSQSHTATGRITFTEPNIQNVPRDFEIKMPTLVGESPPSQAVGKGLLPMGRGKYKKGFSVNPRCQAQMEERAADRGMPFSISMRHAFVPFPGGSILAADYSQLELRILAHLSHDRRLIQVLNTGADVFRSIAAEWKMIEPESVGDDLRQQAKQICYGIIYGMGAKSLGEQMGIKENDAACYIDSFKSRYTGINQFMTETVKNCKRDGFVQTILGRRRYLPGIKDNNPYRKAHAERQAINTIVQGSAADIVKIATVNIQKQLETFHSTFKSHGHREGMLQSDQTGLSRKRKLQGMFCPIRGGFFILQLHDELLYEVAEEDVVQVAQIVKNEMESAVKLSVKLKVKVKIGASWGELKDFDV"}
{"SMILES": "N#CSc1ccc2oc(C3=NCCN3)cc2c1", "remaining activity": "65.6%"}
{"SMILES": "O=c1onc2cnc3ccccc3n12", "remaining activity": "96.1%"}
{"SMILES": "NCCCS(=O)(=O)O", "remaining activity": "97.6%"}
{"SMILES": "N=C(N)SCCc1c[nH]cn1", "remaining activity": "97.2%"}
{"SMILES": "Nc1nc(Nc2ccc(S(N)(=O)=O)cc2)nn1C(=O)c1c(F)cccc1F", "remaining activity": "99% and 93.8% and 98% and 97.5% and 114%"}
{"SMILES": "CC[C@H](C)C(=O)O[C@H]1CCC=C2C=C[C@H](C)[C@H](CC[C@@H]3C[C@@H](O)CC(=O)O3)[C@H]21", "remaining activity": "101% and 98.9%"}
{"SMILES": "CC(=O)OCC(=O)[C@@]1(O)CC[C@H]2[C@@H]3CCC4=CC(=O)CC[C@]4(C)[C@H]3C(=O)C[C@@]21C", "remaining activity": "92.6%"}
{"SMILES": "O=C(Nc1ccncc1)c1cc([N+](=O)[O-])ccc1Cl", "remaining activity": "79.7%"}
{"SMILES": "CSC(=N)NCCC[C@H](N)C(=O)O", "remaining activity": "102%"}
{"SMILES": "COc1cc(Nc2c(C#N)cnc3cc(OCCCN4CCN(C)CC4)c(OC)cc23)c(Cl)cc1Cl", "remaining activity": "95.8% and 95.3% and 98.1% and 100%"}
{"SMILES": "OCCC#Cc1nc(-c2ccc(F)cc2)c(-c2ccncc2)n1CCCc1ccccc1", "remaining activity": "115% and 113% and 114%"}
{"SMILES": "CC1=C(/C=C/C(C)=C/C=C/C(C)=C/C(=O)Nc2ccc(O)cc2)C(C)(C)CCC1", "remaining activity": "101%"}
{"SMILES": "Cn1c(=O)c2[nH]cnc2n(C)c1=O", "remaining activity": "99.9% and 108% and 81.5%"}
{"data": "Series 3", "SMILES": "O=C(NCc1ncc(C(F)(F)F)cc1Cl)c1ccc2c(c1)C1(CCS(=O)(=O)CC1)[C@H](C1CC1)N2S(=O)(=O)c1ccc(F)cc1", "observed": "cell-free assay", "technique": "competition with immobilised ligand", "concentration": "1 µM"}
{"target": "PRKG1 (Homo sapiens, UniProt Q13976)", "remaining binding [%]": 100}
{"target": "CAMK2G (Homo sapiens, UniProt Q13555)", "remaining binding [%]": 100}
{"target": "DAPK1 (Homo sapiens, UniProt P53355)", "remaining binding [%]": 100}
{"target": "STK16 (Homo sapiens, UniProt O75716)", "remaining binding [%]": 88}
{"target": "PIK3C2B (Homo sapiens, UniProt O00750)", "remaining binding [%]": 100}
{"target": "PLK2 (Homo sapiens, UniProt Q9NYY3)", "remaining binding [%]": 76}
{"target": "BRSK2 (Homo sapiens, UniProt Q8IWQ3)", "remaining binding [%]": 100}
{"target": "PI4KB (Homo sapiens, UniProt Q9UBF8)", "remaining binding [%]": 78}
{"target": "DCLK3 (Homo sapiens, UniProt Q9C098)", "remaining binding [%]": 92}
{"target": "BRAF (Homo sapiens, UniProt P15056)", "remaining binding [%]": 91}
{"target": "PRKCE (Homo sapiens, UniProt Q02156)", "remaining binding [%]": 69}
{"target": "PIK3C3 (Homo sapiens, UniProt Q8NEB9)", "remaining binding [%]": 86}
{"target": "NTRK3 (Homo sapiens, UniProt Q16288)", "remaining binding [%]": 84}
{"target": "TESK1 (Homo sapiens, UniProt Q15569)", "remaining binding [%]": 91}
{"target": "SRPK3 (Homo sapiens, UniProt Q9UPE1)", "remaining binding [%]": 100}
{"target": "Tyrosine-protein kinase JAK1, JH2 (JAK1, Homo sapiens, UniProt P23458)", "remaining binding [%]": 87}
{"target": "CAMK1G (Homo sapiens, UniProt Q96NX5)", "remaining binding [%]": 98}
{"target": "CDK11B (Homo sapiens, UniProt P21127)", "remaining binding [%]": 100}
{"target": "RIPK1 (Homo sapiens, UniProt Q13546)", "remaining binding [%]": 100}
{"target": "CDK14 (Homo sapiens, UniProt O94921)", "remaining binding [%]": 100}
{"data": "Series 4", "target": "Proto-oncogene tyrosine-protein kinase Src (SRC, Homo sapiens, UniProt P12931)", "observed": "enzyme activity", "mode": "inhibitor", "concentration": "0.5 µM", "baseline": "control"}
{"Structure (SMILES)": "Nc1ncnc2c1cnn2-c1ccccc1", "remaining activity [%]": 96.9}
{"Structure (SMILES)": "CCCC(=O)Oc1ccc2[nH]c(C(=O)c3cc4ccccc4[nH]3)cc2c1", "remaining activity [%]": 97}
{"Structure (SMILES)": "Nc1nc(Nc2ccc(S(N)(=O)=O)cc2)nn1C(=O)c1c(F)cccc1F", "remaining activity [%]": 76.3}
{"Structure (SMILES)": "Fc1ccc(-c2nc3n(c2-c2ccncc2)CCS3)cc1", "remaining activity [%]": 98.2}
{"Structure (SMILES)": "Nc1nccc(-c2c(-c3ccc(F)cc3)ncn2C2CCNCC2)n1", "remaining activity [%]": 94.2}
{"Structure (SMILES)": "CCc1[nH]c(-c2ccc(OC)cc2)nc1-c1ccncc1", "remaining activity [%]": 95.3}
{"Structure (SMILES)": "COc1cc(Nc2c(C#N)cnc3cc(OCCCN4CCN(C)CC4)c(OC)cc23)c(Cl)cc1Cl", "remaining activity [%]": 6.05}
{"Structure (SMILES)": "COc1ccc(S(=O)(=O)N(CCO)c2ccccc2CN(C)CC=Cc2ccc(Cl)cc2)cc1", "remaining activity [%]": 92.7}
{"Structure (SMILES)": "Cc1ccc(NC2=CC(=O)c3sc(C)nc3C2=O)cc1", "remaining activity [%]": 79.6}
{"Structure (SMILES)": "O=C1NC(=O)C(c2c[nH]c3ccccc23)=C1c1c[nH]c2ccccc12", "remaining activity [%]": 93.7}
{"Structure (SMILES)": "CC(=O)c1ccc(N2CCOCC2)cc1O", "remaining activity [%]": 104}
{"Structure (SMILES)": "O=S(=O)(NCCNC/C=C/c1ccc(Br)cc1)c1cccc2cnccc12", "remaining activity [%]": 90.1}
{"Structure (SMILES)": "NC(=O)c1ccc(N(C(N)=O)c2c(F)cccc2F)nc1-c1ccc(F)cc1F", "remaining activity [%]": 109}
{"Structure (SMILES)": "CSc1nc(-c2ccnc(N[C@@H](C)c3ccccc3)c2)c(-c2ccc(F)cc2)[nH]1 (racemic)", "remaining activity [%]": 99}
{"Structure (SMILES)": "CC(C)(C)n1nc(Cc2cccc3ccccc23)c2c(N)ncnc21", "remaining activity [%]": 67.3}
{"Structure (SMILES)": "N#CC(=C(N)Sc1ccc(N)cc1)c1ccccc1C(F)(F)F", "remaining activity [%]": 94.1}
{"Structure (SMILES)": "O=C1Cc2c([nH]c3ccc([N+](=O)[O-])cc23)-c2ccccc2N1", "remaining activity [%]": 39.7}
{"Structure (SMILES)": "CC#CC(=O)Nc1cc2c(Nc3ccc(F)c(Cl)c3)ncnc2cn1", "remaining activity [%]": 97.7}
{"Structure (SMILES)": "Oc1ccc(Nc2nc(-c3ccc(Cl)cc3)cs2)cc1", "remaining activity [%]": 95.1}
{"Structure (SMILES)": "Cc1cncc2cccc(S(=O)(=O)N3CCCN(C(=O)CN)C[C@@H]3C)c12", "remaining activity [%]": 93.6}
{"Structure (SMILES)": "CC[n+]1c(/C=C/N(C)c2ccccc2)n(-c2ccccc2)c2ccc(-c3nc4ccccc4s3)cc21", "remaining activity [%]": 94.5}
{"note": "Excerpt of the above (series 2):"}
{"SMILES": "N=C(N)SCCc1c[nH]cn1", "remaining activity": "97.2%"}
{"SMILES": "Cn1c(=O)c2[nH]cnc2n(C)c1=O", "remaining activity": "99.9% and 108% and 81.5%"}
{"SMILES": "O=c1onc2cnc3ccccc3n12", "remaining activity": "96.1%"}
{"SMILES": "COc1cc(Nc2c(C#N)cnc3cc(OCCCN4CCN(C)CC4)c(OC)cc23)c(Cl)cc1Cl", "remaining activity": "95.8% and 95.3% and 98.1% and 100%"}
{"SMILES": "Nc1nc(Nc2ccc(S(N)(=O)=O)cc2)nn1C(=O)c1c(F)cccc1F", "remaining activity": "99% and 93.8% and 98% and 97.5% and 114%"}
{"SMILES": "N#CSc1ccc2oc(C3=NCCN3)cc2c1", "remaining activity": "65.6%"}
